Published values gathered from unrelated publications.
Compare with care: the assays were run in different laboratories.

SMILES | test | system | setting | quantity | result
CNC(=O)c1cc(Oc2ccc(NC(=O)Nc3cc(C(C)(C)C)nn3-c3ccc4ncccc4c3)c(F)c2)ccn1 | – | human, trial | oral, dose not given, all doses | patients with related serious Dysarthria AE | 2%
COc1ncnn2ccc(-c3cnc4nc(C)n(Cc5nnc([C@@H](C)F)o5)c4c3)c12 | – | human | oral, dose not given, grade 2 | patients with dehydration | 14.3%
Cn1nc(NS(C)(=O)=O)c2c(Cl)ccc(-n3c([C@H](Cc4cc(F)cc(F)c4)NC(=O)Cn4nc(C(F)F)c5c4C(F)(F)[C@@H]4C[C@H]54)nc4nc(OCCC(F)(F)F)ccc4c3=O)c21 | refers to: LDL cholesterol grade 2 increase | human | 200 mg once daily, powder in bottle | patients with laboratory abnormality | 17%
C[C@]1(O)C[C@@](N)(c2ccc(-c3nc4n(c3-c3ccccc3)COc3ccncc3-4)cc2)C1 | – | human, advanced or metastatic solid tumours | 24 mg intermittent, phase I dose escalation | patients with Anemia TEAE | 0%
C=CC(=O)Nc1cc(Nc2nccc(Nc3cc(Cl)c(F)cc3C(C)(C)O)n2)c(OC)cc1N1CC[C@@H](N(C)C)C1 | – | human patients | oral, 200 mg, treatment-emergent adverse events | patients with mouth ulceration | 12.5%
COc1ccc(-c2c(-c3ccc(C#N)c(F)c3)nc(N3CCC(N)CC3)n(C)c2=O)cc1F | refers to: conjunctival hemorrhage | human patients | oral, dose not given, dose escalation | patients with TRAE any grade | 4%
CN(C)C(=O)c1cc2cnc(Nc3ccc(N4CCNCC4)cn3)nc2n1C1CCCC1 | refers to: Renal toxicity, AESI | human, HR+/HER2− advanced breast cancer | oral, dose not given, grade 3, CTCAE v4.03 | patients with adverse event | 0.3%
CN[C@@H](C)C(=O)N[C@H]1CN(S(=O)(=O)c2cccc(S(=O)(=O)N3CC[C@H]4CC[C@@H](C(=O)NC(c5ccccc5)c5ccccc5)N4C(=O)[C@@H](NC(=O)[C@H](C)NC)C3)c2)CC[C@H]2CC[C@@H](C(=O)NC(c3ccccc3)c3ccccc3)N2C1=O | – | human, advanced solid tumours | intravenous, 30 mg weekly, CTCAE version 4.0 | patients with any TRAE | 33.3%
N[C@@H]1c2ccccc2OC12CCN(c1cnc3c(N4CCCc5ncccc54)n[nH]c3n1)CC2 | refers to: constipation | human advanced or metastatic solid tumours | oral, dose not given, phase Ia all doses | patients with adverse event | 25%
O=C1Nc2cc3[nH]nc(-c4ccncc4)c3cc2CN1Cc1ccccc1 | CTCAE v4.03 | human, relapsed or refractory advanced solid tumours | intravenous, 4.8 mg/kg | patients with retinal detachment | 33%
C[C@@H]1OC(=O)NN=C1c1ccc(-c2ccc(F)cc2)c(C(F)(F)F)c1 | phase I trial, refers to: alkaline phosphatase increased | human patients | 20 mg load, 1 mg daily, all grades | patients with TEAE | 50%
Cn1cncc1-c1c(F)cncc1NC(=O)c1c(N)nn2cc(F)cnc12 | – | human patients | oral, 150 mg twice daily, 4 days on 3 days off | patients grade ≥3 Anemia | 100%
Cc1cn([C@H]2O[C@@H](CO[P@@](=O)(N[C@@H](C)C(=O)OC(C)C)Oc3ccccc3)[C@H](O)[C@H]2F)c(=O)[nH]c1=O | refers to: blood CPK increased | human | 25 mg | patients with TEAE | 0%

A few entries again:
SMILES | test | system | setting | quantity | result
Cn1cncc1-c1c(F)cncc1NC(=O)c1c(N)nn2cc(F)cnc12 | – | human patients | oral, 150 mg twice daily, 4 days on 3 days off | patients grade ≥3 Anemia | 100%
Cc1cn([C@H]2O[C@@H](CO[P@@](=O)(N[C@@H](C)C(=O)OC(C)C)Oc3ccccc3)[C@H](O)[C@H]2F)c(=O)[nH]c1=O | refers to: blood CPK increased | human | 25 mg | patients with TEAE | 0%
